{"data": "Assay results pooled from the literature", "note": "Every numbered part comes from another study and shows a few of its results, in no order.", "UniProt Q96NX5, sequence (whole entry, looked up)": "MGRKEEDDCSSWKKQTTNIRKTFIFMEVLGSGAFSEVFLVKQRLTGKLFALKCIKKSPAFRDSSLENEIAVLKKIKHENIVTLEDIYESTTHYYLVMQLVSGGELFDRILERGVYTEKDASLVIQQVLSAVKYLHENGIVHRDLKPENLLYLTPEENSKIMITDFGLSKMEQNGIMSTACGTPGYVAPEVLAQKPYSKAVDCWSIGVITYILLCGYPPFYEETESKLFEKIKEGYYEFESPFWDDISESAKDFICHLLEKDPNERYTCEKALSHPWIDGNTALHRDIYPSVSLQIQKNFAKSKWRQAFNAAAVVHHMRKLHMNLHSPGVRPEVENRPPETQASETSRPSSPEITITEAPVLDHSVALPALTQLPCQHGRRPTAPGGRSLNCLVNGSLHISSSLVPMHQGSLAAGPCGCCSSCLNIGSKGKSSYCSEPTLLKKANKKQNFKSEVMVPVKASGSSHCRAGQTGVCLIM", "UniProt O15075, sequence (whole entry, looked up)": "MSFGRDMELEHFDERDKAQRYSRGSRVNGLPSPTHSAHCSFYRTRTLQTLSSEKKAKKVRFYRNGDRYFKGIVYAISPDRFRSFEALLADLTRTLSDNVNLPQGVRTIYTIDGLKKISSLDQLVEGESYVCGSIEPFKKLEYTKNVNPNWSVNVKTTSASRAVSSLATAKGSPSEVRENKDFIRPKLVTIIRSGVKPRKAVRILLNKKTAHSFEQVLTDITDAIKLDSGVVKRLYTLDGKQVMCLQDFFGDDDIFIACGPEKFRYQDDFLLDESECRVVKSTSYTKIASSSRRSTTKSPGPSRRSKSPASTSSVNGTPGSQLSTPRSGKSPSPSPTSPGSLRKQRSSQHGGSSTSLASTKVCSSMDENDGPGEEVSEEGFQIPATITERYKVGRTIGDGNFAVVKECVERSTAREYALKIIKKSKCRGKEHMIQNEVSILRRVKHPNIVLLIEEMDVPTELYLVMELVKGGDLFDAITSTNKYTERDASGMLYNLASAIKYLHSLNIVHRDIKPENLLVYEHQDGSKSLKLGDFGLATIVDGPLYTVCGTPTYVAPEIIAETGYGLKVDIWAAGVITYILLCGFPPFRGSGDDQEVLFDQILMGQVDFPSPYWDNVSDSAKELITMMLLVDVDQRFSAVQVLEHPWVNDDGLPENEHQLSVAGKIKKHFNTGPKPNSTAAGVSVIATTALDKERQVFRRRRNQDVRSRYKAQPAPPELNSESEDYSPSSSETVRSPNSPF", "UniProt P42336, sequence (whole entry, unmodified, looked up)": "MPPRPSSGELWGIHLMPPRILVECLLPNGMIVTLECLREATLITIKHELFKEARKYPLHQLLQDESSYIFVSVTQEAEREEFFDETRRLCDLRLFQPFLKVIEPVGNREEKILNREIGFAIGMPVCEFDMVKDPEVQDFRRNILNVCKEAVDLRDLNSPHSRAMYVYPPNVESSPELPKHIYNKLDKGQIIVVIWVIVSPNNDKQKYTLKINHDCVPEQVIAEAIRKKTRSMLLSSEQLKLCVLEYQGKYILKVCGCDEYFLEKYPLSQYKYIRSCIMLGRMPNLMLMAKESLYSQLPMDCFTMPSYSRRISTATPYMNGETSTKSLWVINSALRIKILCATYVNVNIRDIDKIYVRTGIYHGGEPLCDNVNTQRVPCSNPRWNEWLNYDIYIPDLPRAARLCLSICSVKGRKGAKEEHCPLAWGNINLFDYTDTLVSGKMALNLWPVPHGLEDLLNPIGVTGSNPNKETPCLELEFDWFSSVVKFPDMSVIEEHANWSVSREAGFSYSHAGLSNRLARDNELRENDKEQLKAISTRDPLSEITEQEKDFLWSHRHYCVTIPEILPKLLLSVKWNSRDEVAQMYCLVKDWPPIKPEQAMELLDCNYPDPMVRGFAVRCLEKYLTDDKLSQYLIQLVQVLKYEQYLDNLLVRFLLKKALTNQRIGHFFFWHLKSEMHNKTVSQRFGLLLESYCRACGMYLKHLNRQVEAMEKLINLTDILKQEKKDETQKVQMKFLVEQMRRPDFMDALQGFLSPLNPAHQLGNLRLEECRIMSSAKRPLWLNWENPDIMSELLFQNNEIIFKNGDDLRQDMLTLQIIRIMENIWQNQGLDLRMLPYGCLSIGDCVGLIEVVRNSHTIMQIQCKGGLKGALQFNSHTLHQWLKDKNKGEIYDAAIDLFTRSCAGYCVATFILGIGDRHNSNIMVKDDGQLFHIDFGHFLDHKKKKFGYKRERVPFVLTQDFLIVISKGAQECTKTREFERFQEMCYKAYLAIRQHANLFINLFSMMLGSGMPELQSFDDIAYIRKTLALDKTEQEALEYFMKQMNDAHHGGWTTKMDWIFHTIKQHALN", "UniProt O14920, sequence (whole entry, looked up)": "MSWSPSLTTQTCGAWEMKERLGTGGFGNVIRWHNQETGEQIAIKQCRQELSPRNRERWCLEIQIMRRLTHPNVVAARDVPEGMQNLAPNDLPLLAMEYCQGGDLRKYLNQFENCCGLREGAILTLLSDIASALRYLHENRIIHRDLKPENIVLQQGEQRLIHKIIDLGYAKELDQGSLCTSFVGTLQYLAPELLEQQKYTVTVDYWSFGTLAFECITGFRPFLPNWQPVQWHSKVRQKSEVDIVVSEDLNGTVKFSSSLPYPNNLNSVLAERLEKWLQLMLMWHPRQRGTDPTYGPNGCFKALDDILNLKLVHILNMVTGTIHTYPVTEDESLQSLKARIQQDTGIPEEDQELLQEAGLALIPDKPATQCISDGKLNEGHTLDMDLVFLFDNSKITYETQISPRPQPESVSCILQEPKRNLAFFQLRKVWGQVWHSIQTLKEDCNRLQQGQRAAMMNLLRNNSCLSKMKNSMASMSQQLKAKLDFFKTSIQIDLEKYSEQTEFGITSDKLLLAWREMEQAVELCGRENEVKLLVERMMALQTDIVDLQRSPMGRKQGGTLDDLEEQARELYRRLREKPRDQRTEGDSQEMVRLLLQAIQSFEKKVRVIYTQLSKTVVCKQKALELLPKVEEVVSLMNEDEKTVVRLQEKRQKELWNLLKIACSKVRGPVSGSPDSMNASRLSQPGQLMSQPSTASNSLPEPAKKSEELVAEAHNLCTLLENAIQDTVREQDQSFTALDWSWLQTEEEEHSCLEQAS", "UniProt Q8TBX8, sequence (whole entry, looked up)": "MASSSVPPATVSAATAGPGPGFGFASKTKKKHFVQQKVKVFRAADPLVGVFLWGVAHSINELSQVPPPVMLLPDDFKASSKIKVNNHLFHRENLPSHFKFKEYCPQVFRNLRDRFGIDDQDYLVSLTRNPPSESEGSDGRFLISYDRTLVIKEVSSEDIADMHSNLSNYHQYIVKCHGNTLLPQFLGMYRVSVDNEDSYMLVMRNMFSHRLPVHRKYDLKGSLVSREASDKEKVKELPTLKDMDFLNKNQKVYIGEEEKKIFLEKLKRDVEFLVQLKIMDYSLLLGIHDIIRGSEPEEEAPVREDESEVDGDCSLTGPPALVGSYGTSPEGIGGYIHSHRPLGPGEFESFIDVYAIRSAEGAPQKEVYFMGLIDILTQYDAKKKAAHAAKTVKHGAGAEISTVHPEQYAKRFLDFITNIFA", "UniProt Q9Y6M4, sequence (whole entry, looked up)": "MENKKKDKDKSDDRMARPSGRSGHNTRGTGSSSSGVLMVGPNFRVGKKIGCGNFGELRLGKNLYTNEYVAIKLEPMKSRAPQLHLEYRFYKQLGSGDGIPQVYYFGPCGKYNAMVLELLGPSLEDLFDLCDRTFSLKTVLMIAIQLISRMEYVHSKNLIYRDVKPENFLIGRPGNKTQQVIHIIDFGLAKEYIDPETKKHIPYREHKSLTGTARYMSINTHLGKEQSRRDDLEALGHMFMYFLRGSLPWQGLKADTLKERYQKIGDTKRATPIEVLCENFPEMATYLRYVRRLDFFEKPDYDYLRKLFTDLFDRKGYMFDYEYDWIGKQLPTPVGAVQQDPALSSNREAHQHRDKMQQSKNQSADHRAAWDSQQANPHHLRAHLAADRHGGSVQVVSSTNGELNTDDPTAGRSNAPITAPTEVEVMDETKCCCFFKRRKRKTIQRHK"}
{"data": "Block 1", "SMILES": "COc1cc(C(=O)N2CCC(N3CCN(C)CC3)CC2)ccc1Nc1ncc2c(n1)N(C)c1ccccc1C(=O)N2C", "method": "KINOMEscan", "tested at": "10 µM", "reference": "DMSO control", "direction": "lower = stronger binding"}
{"target": "DYRK1B", "binding [%]": 94}
{"target": "MTOR", "binding [%]": 97}
{"target": "PDPK1", "binding [%]": 100}
{"target": "MAP4K4", "binding [%]": 85}
{"target": "CIT", "binding [%]": 99}
{"target": "TESK1", "binding [%]": 82}
{"target": "NEK11", "binding [%]": 100}
{"target": "AKT1", "binding [%]": 79}
{"data": "Block 2", "target": "Receptor-type tyrosine-protein kinase FLT3 (FLT3, Homo sapiens, UniProt P36888)", "read-out": "enzyme activity", "action": "inhibitor", "tested at": "0.5 µM", "reference": "control"}
{"SMILES": "CCOc1cc2ncnc(Nc3cccc(Br)c3)c2cc1OCC", "remaining activity": "29%"}
{"SMILES": "CC(C)c1nn(-c2c(Cl)cccc2Cl)c2nc(Cc3ccc(OCCO)cc3)[nH]c(=O)c12", "remaining activity": "74.2%"}
{"SMILES": "CCC(=O)Nc1ccc2ncnc(Nc3cccc(Br)c3)c2c1", "remaining activity": "94.1%"}
{"SMILES": "Cn1cnc2cc3c(Nc4cccc(Br)c4)ncnc3cc21", "remaining activity": "33.4%"}
{"SMILES": "CS(=O)(=O)CCNCc1ccc(-c2ccc3ncnc(Nc4ccc(OCc5cccc(F)c5)c(Cl)c4)c3c2)o1", "remaining activity": "92.6%"}
{"SMILES": "CC(=O)O/N=C1/C(c2c(O)[nH]c3cc(Br)ccc23)=Nc2ccccc21", "remaining activity": "21.6%"}
{"SMILES": "COc1ccc(Cl)cc1NC(=O)Nc1cc(C)nc2ccccc12", "remaining activity": "94.4%"}
{"SMILES": "COc1cc2ncnc(Nc3ccc(OCc4ccccc4)cc3)c2cc1OC", "remaining activity": "56.4%"}
{"SMILES": "Cn1cc(/C=C2\\C(=O)Nc3ccc(S(N)(=O)=O)cc32)c2ccccc21", "remaining activity": "1.56%"}
{"SMILES": "O=C1NC(=O)/C(=C/c2ccc3nccnc3c2)S1", "remaining activity": "95.2%"}
{"data": "Block 3", "Structure (SMILES)": "CN(C)C(=O)Cn1cc(-c2nc([C@@](C)(c3ccc(-c4cnc(N)nc4)cc3)C3CC3)no2)cn1", "method": "competition with immobilised ligand", "tested at": "1 µM"}
{"target": "FLT3 (Homo sapiens, UniProt P36888, F691L/ITD)", "read-out": "cell-free assay", "remaining binding [%]": 100}
{"target": "DCLK1 (Homo sapiens, UniProt O15075)", "read-out": "cell-free assay", "remaining binding [%]": 71}
{"target": "ACVRL1 (Homo sapiens, UniProt P37023)", "read-out": "binding", "remaining binding [%]": 84}
{"target": "MAK (Homo sapiens, UniProt P20794)", "read-out": "cell-free assay", "remaining binding [%]": 100}
{"target": "CSNK1G3 (Homo sapiens, UniProt Q9Y6M4)", "read-out": "cell-free assay", "remaining binding [%]": 95}
{"target": "KIT (Homo sapiens, UniProt P10721, V559D)", "read-out": "cell-free assay", "remaining binding [%]": 91}
{"target": "EPHA4 (Homo sapiens, UniProt P54764)", "read-out": "cell-free assay", "remaining binding [%]": 100}
{"target": "PIP4K2C (Homo sapiens, UniProt Q8TBX8)", "read-out": "cell-free assay", "remaining binding [%]": 100}
{"target": "MYLK3 (Homo sapiens, UniProt Q32MK0)", "read-out": "cell-free assay", "remaining binding [%]": 100}
{"target": "IKBKB (Homo sapiens, UniProt O14920)", "read-out": "cell-free assay", "remaining binding [%]": 100}
{"target": "PIK3CA (Homo sapiens, UniProt P42336, M1043I)", "read-out": "cell-free assay", "remaining binding [%]": 100}
{"target": "CAMK1G (Homo sapiens, UniProt Q96NX5)", "read-out": "cell-free assay", "remaining binding [%]": 100}
{"target": "CDKL5 (Homo sapiens, UniProt O76039)", "read-out": "binding", "remaining binding [%]": 89}
{"data": "Block 4", "cell line": "mouse MPNST tumor cells", "method": "high-content nuclear imaging", "refers to": "cell number", "tested at": "10 µM", "time": "12 h", "notes": "mean of 2 replicates", "reference": "plate mean", "direction": "higher = more cells"}
{"SMILES": "O=[N+]([O-])c1ccc(CN2CCOCCOCCN(Cc3ccc([N+](=O)[O-])cc3)CCOCC2)cc1", "nuclei count": "0.79 z-score"}
{"SMILES": "CC1(C)CCC(C)(C)c2cc(C3(c4ccc(C(=O)O)cc4)OCCO3)ccc21", "nuclei count": "2.17 z-score"}
{"SMILES": "CC(=O)N1CCN(c2ccc(OCC3COC(Cn4ccnc4)(c4ccc(Cl)cc4Cl)O3)cc2)CC1 (stereo not shown)", "nuclei count": "0.818 z-score"}
{"SMILES": "CC(C)(C)c1ccc(C(=O)Nc2cn3cc(-n4ccnc4)ccc3n2)cc1", "nuclei count": "1.86 z-score"}
{"SMILES": "CC(C)(C)c1ccc(C=CC(=O)Nc2ccc3c(c2)OCCO3)cc1", "nuclei count": "3.36 z-score"}
{"SMILES": "O=C(O)[C@@H]1[C@H](C(=O)O)NCCN1C(=O)c1ccc2c(ccc3ccccc32)c1.O=C(O)[C@H]1NCCN(C(=O)c2ccc3c(ccc4ccccc43)c2)[C@H]1C(=O)O", "nuclei count": "0.0722 z-score"}
{"SMILES": "COc1ccc(CN(CCN(C)C)c2ccccn2)cc1", "nuclei count": "1.13 z-score"}
{"SMILES": "CCC(c1ccccc1)c1c(O)c2ccccc2oc1=O (stereo not shown)", "nuclei count": "1.64 z-score"}
{"SMILES": "Nc1nc(-c2nn(Cc3ccccc3F)c3ncccc23)ncc1C1CC1", "nuclei count": "-2.91 z-score"}
{"SMILES": "COc1cccc(NC(=O)/C=C/c2ccc(Cl)cc2)c1", "nuclei count": "4.02 z-score"}
{"SMILES": "CCCC(=O)Nc1cccc(NC(=O)c2ccccc2Br)c1", "nuclei count": "1.06 z-score"}
{"SMILES": "CCOC(=O)Nc1ccc(NCc2ccc(F)cc2)nc1N", "nuclei count": "1.4 z-score"}
{"note": "Excerpt of the above (block 3):"}
{"target": "FLT3 (Homo sapiens, UniProt P36888, F691L/ITD)", "read-out": "cell-free assay", "remaining binding [%]": 100}
{"target": "EPHA4 (Homo sapiens, UniProt P54764)", "read-out": "cell-free assay", "remaining binding [%]": 100}
{"target": "MAK (Homo sapiens, UniProt P20794)", "read-out": "cell-free assay", "remaining binding [%]": 100}
{"target": "KIT (Homo sapiens, UniProt P10721, V559D)", "read-out": "cell-free assay", "remaining binding [%]": 91}
